# Results pooled from the literature.
# Several values in a cell are separate wells, animals, samples, runs or records. Numbers after ± are the reported error.
# Organism: Staphylococcus aureus
SMILES,test,test system,conditions,scale,measurement,result
O=C(O)c1cn(C2CC2)c2cc(N3CCNCC3)c(F)cc2c1=O,,ATCC 33591 MRSA,1×MIC,,biofilm inhibition,85%
CC[C@H](C)[C@H](NC(=O)[C@H](Cc1c[nH]c2ccccc12)NC(=O)[C@@H](NC(=O)[C@H](Cc1ccc(O)cc1)NC(=O)[C@@H]1CCCN1C(=O)[C@@H](NC(=O)[C@H](C)N)[C@@H](C)CC)[C@@H](C)CC)C(=O)N[C@@H](Cc1ccc(O)cc1)C(=O)N[C@@H](CCCNC(=N)N)C(=O)N[C@@H](CC(C)C)C(=O)N[C@@H](CC(C)C)C(=O)N[C@@H](CCCNC(=N)N)C(=O)N[C@@H](CCCCN)C(=O)NCC(N)=O,,ATCC 35556,"18 h, 37 °C",,MBC,> 15 µM
CC[C@H](C)[C@H](NC(=O)[C@H](CCCNC(=N)N)NC(=O)[C@H](CCCNC(=N)N)NC(=O)[C@H](CCCNC(=N)N)NC(=O)[C@H](CCCNC(=N)N)NC(=O)[C@H](CCCNC(=N)N)NC(=O)[C@@H](N)CCCNC(=N)N)C(=O)N[C@@H](CO)C(=O)N[C@@H](Cc1ccccc1)C(=O)N[C@@H](CC(C)C)C(=O)NCC(=O)N[C@@H](CO)C(=O)N[C@@H](CCCCN)C(=O)N[C@@H](CCCCN)C(=O)N[C@@H](CCCCN)C(=O)N[C@@H](CCCCN)C(=O)N[C@@H](CCCCN)C(=O)N[C@@H](CC(C)C)C(=O)N[C@@H](CC(C)C)C(=O)N[C@@H](CCCCN)C(=O)N[C@@H](CCCNC(=N)N)C(N)=O,checkerboard,,"unit not given, added: oritavancin",lower means synergy,FICI,0.14
Cn1c(=O)ccc2ccc(F)c(CCNC[C@H]3CN(c4cnc5c(n4)NC(=O)CO5)C(=O)O3)c21,,,,,MIC50,0.03 mg/L
COc1ccc2c(ccc3oc([N+](=O)[O-])cc32)c1,REMA,,,,MIC90,< 0.25 mg/L
CO[C@H]1[C@H](O[C@H]([C@H]2O[C@@H](n3ccc(=O)[nH]c3=O)[C@H](O)[C@@H]2O)[C@H](NCCCNC(=O)[C@@H](NC(=O)[C@@H](NC(=O)N[C@H](C(=O)O)C(C)C)[C@@H]2CCN=C(N)N2)[C@@H](OC(=O)CCCCCCCCCCCCN(O)C(=N)N)C(C)C)C(=O)O)O[C@H](CN)[C@H]1O,resazurin microplate,71080 (NR-46418),,,MIC90,15.5 ± 0.455 mg/L
Cc1c2c(nn1C)CSCc1cc(n(C)n1)CSc1cc(c3ccccc3c1)OCCCc1c(C(=O)O)n(C)c3c-2c(Cl)ccc13,"label-free proteomics, item: acyP",SA113,concentration not given,relative to: untreated,log2 fold change,2.72
CN[C@H](CC(C)C)C(=O)N[C@H]1C(=O)N[C@@H](CC(N)=O)C(=O)N[C@H]2C(=O)N[C@H]3C(=O)N[C@H](C(=O)N[C@H](C(=O)O)c4cc(O)cc(O)c4-c4cc3ccc4O)[C@H](O)c3ccc(c(Cl)c3)Oc3cc2cc(c3O[C@@H]2O[C@H](CO)[C@@H](O)[C@H](O)[C@H]2O[C@H]2C[C@](C)(N)[C@H](O)[C@H](C)O2)Oc2ccc(cc2Cl)[C@H]1O,,"VRS2 VanA VRSA, mouse thigh infection",dose not given,,antibacterial activity,inactive
CC(C)[C@@H]1NC(=O)CNC(=O)[C@H](CC(N)=O)NC(=O)[C@H](CCCNC(=N)N)NC(=O)[C@H](Cc2ccc(O)cc2)NC(=O)[C@H](C(C)C)NC(=O)[C@@H](NC(=O)[C@@H](NC(=O)[C@H](CC(N)=O)NC(=O)[C@H](Cc2c[nH]c3ccccc23)NC(=O)[C@H](C)NC(=O)[C@H](Cc2ccccc2)NC(=O)CN)C(C)C)CSSC[C@@H](C(=O)N[C@@H](Cc2c[nH]cn2)C(=O)N[C@@H](CCCNC(=N)N)C(=O)N[C@@H](CCCNC(=N)N)C(=O)N[C@@H](C)C(=O)N[C@@H](CC(N)=O)C(N)=O)NC(=O)[C@H](C(C)C)NC(=O)[C@H](CCCNC(=N)N)NC1=O,bactericidal activity,CGMCC 1.9,24 h,,Emax,-5.6 log CFU
CC[C@H](C)[C@H](NC(=O)[C@H](CC(C)C)NC(=O)[C@H](CCCNC(=N)N)NC(=O)[C@@H](N)CCCNC(=N)N)C(=O)N[C@@H](CC(C)C)C(=O)N[C@H](C(=O)N[C@@H](CCCCN)C(=O)N[C@H](C(=O)NCC(=O)N1CCC[C@H]1C(=O)N[C@H](C(=O)N[C@H](C(=O)N[C@@H](Cc1ccc(O)cc1)C(=O)N[C@@H](CCCCN)C(=O)N[C@@H](Cc1ccc(O)cc1)C(=O)N[C@@H](Cc1ccccc1)C(=O)N[C@@H](CCCCN)C(=O)N[C@@H](CCCCN)C(=O)N[C@@H](CCC(N)=O)C(=O)N[C@@H](CC(C)C)C(=O)N[C@@H](CCCCN)C(=O)N[C@@H](CCCCN)C(=O)N[C@@H](CC(C)C)C(N)=O)[C@@H](C)CC)[C@@H](C)CC)[C@@H](C)O)[C@@H](C)O,,"CCARM 3090, methicillin-resistant, Mueller-Hinton broth",24 h,,MIC,64 µM
CC[C@H](C)[C@H](NC(=O)[C@H](Cc1ccc(O)cc1)NC(=O)[C@@H](NC(=O)[C@H](Cc1c[nH]c2ccccc12)NC(=O)[C@@H]1CCCN1C(=O)[C@@H](NC(=O)[C@H](C)N)[C@@H](C)CC)[C@@H](C)CC)C(=O)N[C@@H](Cc1ccc(O)cc1)C(=O)N[C@@H](CCCNC(=N)N)C(=O)N[C@@H](CC(C)C)C(=O)N[C@@H](CC(C)C)C(=O)N[C@@H](CCCNC(=N)N)C(=O)N[C@@H](CCCCN)C(=O)NCC(=O)O,,ATCC 35556,"18 h, 37 °C",,MBC,3.75 µM
COc1c([N+](=O)[O-])oc2ccc3ccccc3c12,REMA,,,,MIC90,> 32 mg/L
C[C@H]1COc2c(N3CCN(C)CC3)c(F)cc3c(=O)c(C(=O)O)cn1c23,,,,,MIC90,32 mg/L
OB(O)CSc1nc2ccccc2n1Cc1ccc(C(F)(F)F)cc1C(F)(F)F,checkerboard,NRS21,added: oxacillin,,FIC index,0.19
CC[C@H](C)[C@H](NC(=O)[C@H](Cc1ccccc1)NC(=O)[C@@H](NC(=O)[C@H](Cc1c[nH]c2ccccc12)NC(=O)[C@@H]1CCCN1C(=O)[C@@H](NC(=O)[C@H](C)N)[C@@H](C)CC)[C@@H](C)CC)C(=O)N[C@@H](Cc1ccccc1)C(=O)N[C@@H](CCCNC(=N)N)C(=O)N[C@@H](CC(C)C)C(=O)N[C@@H](CC(C)C)C(=O)N[C@@H](CCCNC(=N)N)C(=O)N[C@@H](CCCCN)C(=O)NCC(N)=O,,ATCC 19609,"18 h, 37 °C",,MBC,1.88 µM
CN[C@H](CC(C)C)C(=O)N[C@H]1C(=O)N[C@@H](CC(N)=O)C(=O)N[C@H]2C(=O)N[C@H]3C(=O)N[C@H](C(=O)N[C@H](C(=O)O)c4cc(O)cc(O)c4-c4cc3ccc4O)[C@H](O)c3ccc(c(Cl)c3)Oc3cc2cc(c3O[C@@H]2O[C@H](CO)[C@@H](O)[C@H](O)[C@H]2O[C@H]2C[C@](C)(N)[C@H](O)[C@H](C)O2)Oc2ccc(cc2Cl)[C@H]1O,DCFH-DA fluorescence,MRSA ATCC 33591,4 × MIC,higher = more ROS,ROS level,1010 a.u.
COc1cc2oc([N+](=O)[O-])cc2c2ccccc12,REMA,,,,MIC90,> 32 mg/L
C/C(=C\C(=O)OCCCCCCCC(=O)Nc1c2sscc-2[nH]c1=O)[C@@H](O)[C@@H]1OC[C@H](C/C=C/[C@@H](C)[C@H](C)O)[C@@H](O)[C@H]1O,,COL MRSA IleRS G593D P606S,,relative to: mutant over wild type,MIC fold increase,5 to 10 fold
C=CC[C@@H]1c2ccc(OC)c(OC)c2CN2CCc3cc4c(cc3[C@H]12)OCO4,,"P2rx7+/+ mice, skin wound infection","dose not given, day 2",relative to: day 0,relative wound size,1.12 and 1.28

# A few entries again:
SMILES,test,test system,conditions,scale,measurement,result
CC(C)[C@@H]1NC(=O)CNC(=O)[C@H](CC(N)=O)NC(=O)[C@H](CCCNC(=N)N)NC(=O)[C@H](Cc2ccc(O)cc2)NC(=O)[C@H](C(C)C)NC(=O)[C@@H](NC(=O)[C@@H](NC(=O)[C@H](CC(N)=O)NC(=O)[C@H](Cc2c[nH]c3ccccc23)NC(=O)[C@H](C)NC(=O)[C@H](Cc2ccccc2)NC(=O)CN)C(C)C)CSSC[C@@H](C(=O)N[C@@H](Cc2c[nH]cn2)C(=O)N[C@@H](CCCNC(=N)N)C(=O)N[C@@H](CCCNC(=N)N)C(=O)N[C@@H](C)C(=O)N[C@@H](CC(N)=O)C(N)=O)NC(=O)[C@H](C(C)C)NC(=O)[C@H](CCCNC(=N)N)NC1=O,bactericidal activity,CGMCC 1.9,24 h,,Emax,-5.6 log CFU
CC[C@H](C)[C@H](NC(=O)[C@H](CC(C)C)NC(=O)[C@H](CCCNC(=N)N)NC(=O)[C@@H](N)CCCNC(=N)N)C(=O)N[C@@H](CC(C)C)C(=O)N[C@H](C(=O)N[C@@H](CCCCN)C(=O)N[C@H](C(=O)NCC(=O)N1CCC[C@H]1C(=O)N[C@H](C(=O)N[C@H](C(=O)N[C@@H](Cc1ccc(O)cc1)C(=O)N[C@@H](CCCCN)C(=O)N[C@@H](Cc1ccc(O)cc1)C(=O)N[C@@H](Cc1ccccc1)C(=O)N[C@@H](CCCCN)C(=O)N[C@@H](CCCCN)C(=O)N[C@@H](CCC(N)=O)C(=O)N[C@@H](CC(C)C)C(=O)N[C@@H](CCCCN)C(=O)N[C@@H](CCCCN)C(=O)N[C@@H](CC(C)C)C(N)=O)[C@@H](C)CC)[C@@H](C)CC)[C@@H](C)O)[C@@H](C)O,,"CCARM 3090, methicillin-resistant, Mueller-Hinton broth",24 h,,MIC,64 µM
